Measurements gathered from unrelated publications.
A part holds a random share of what one study measured.

Sample 1 — technique: competition protein-binding microarray; molecule type: double-stranded DNA, one strand shown; medium: in vitro; concentration: 2 µM; together with: Cbf1 competitor, 0.05 µM; reading: higher = stronger binding; all sequences stand within: … GTCTTGATTCGCTTGACGCTGCTG
Target: Phosphate system positive regulatory protein PHO4, full length, GST-tagged (PHO4, Saccharomyces cerevisiae, UniProt P07270, residues 1-312)
Notes: whole 60-bp probe, lowest competitor level
Residues (chain): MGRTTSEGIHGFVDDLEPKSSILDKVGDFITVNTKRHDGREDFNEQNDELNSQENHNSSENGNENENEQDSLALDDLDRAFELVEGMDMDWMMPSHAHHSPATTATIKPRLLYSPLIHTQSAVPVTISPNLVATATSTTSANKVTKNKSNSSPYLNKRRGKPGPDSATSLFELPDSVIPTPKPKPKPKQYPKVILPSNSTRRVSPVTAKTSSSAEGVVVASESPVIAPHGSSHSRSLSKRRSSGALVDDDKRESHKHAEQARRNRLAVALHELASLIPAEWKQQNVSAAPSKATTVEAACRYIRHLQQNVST
| Oligonucleotide | fluorescence intensity |
| --- | --- |
| AAATTACTAAGTTGCAGCGTGGGTGACGCCGTATGA | 7780 a.u. |
| GTAAAAAATAGCATTTGCGTGCTTTAGTGAAATTTT | 6970 a.u. |
| AAGACAGATGGCCGACACGCACTTTCACAGTTTCGC | 6600 a.u. |
| TGTAGCGCCAACCAACACGTGCAAATTTCCATCATC | 16100 a.u. |
| GGAAAGGCTCTTCAACACGTGGCAACATAGGTTAAT | 19100 a.u. |
| GGGATGAAAGTTCTGCGTGTGTTGGTTACTTAGGTT | 6870 a.u. |
| CATACCCAACCTTGGGTAGTGGGTGAAGATATTTGT | 4490 a.u. |
| CAGCAATGAATTTGGCTCGTGATGGGGGCCCAGGTC | 6540 a.u. |
| CTTCTGTAAATTTGGGGTGTGGGTGGACGCGCCCCG | 6220 a.u. |
| AAAGCCGTTCTTCGTCACGTGACTCGAAGTTGTAGC | 14600 a.u. |
| ACATATATTAAGTTCCACGTGATGGAGGGAATAGTC | 16700 a.u. |
| CTTCTGTAAATTTGCCACGTGTTTTGACGCGCCCCG | 15800 a.u. |
| GGGCTTATGAGAGACCACGTGGTCTTGTGCTTTAGT | 19000 a.u. |
| AAATTACTAAGTTGCGCTGTGGGTGACGCCGTATGA | 3910 a.u. |
| TGCGCAACAACTTTTCACGTGAGGTTATGTCTAGAA | 12400 a.u. |
| TATGGGTTGTCTGAACCCGTGACTCGTAGATCAGAA | 6160 a.u. |
| GAAATGGAGCATTCACACGTGAAGATTTTTAGGGGA | 13100 a.u. |
| TCGATGTCAAAAAATCTCGTGAGACCTCCGGAATTT | 4030 a.u. |
| CTGGACGGCAGAAAGCACGCAGGCAGGGGGCCTCTG | 6490 a.u. |
| TGTGAATGGTGGGAGTGCATGACAACGAGGATTTTT | 7240 a.u. |
| CCAGACACATCCCATTGCATGACGCAAGTGTGGGAG | 6450 a.u. |
| AAATTACTAAGTTTTCACGTGGGATACCCCGTATGA | 16400 a.u. |
| TGCGCAACAACTTGTTTAGTGGGTGTATGTCTAGAA | 4530 a.u. |
| GTAGCTCTGTCAAACCCCGTGGAACCGCAAACTCAT | 8440 a.u. |
| CGTCCTAGCGATTGATTAGTGGGTGCCATGAGGAAG | 6590 a.u. |

Sample 2 — technique: RNA Bind-n-Seq; molecule type: RNA; medium: in vitro; concentration: 365 nM; relative to: no-protein control; reading: higher = stronger binding
Target: RNA binding protein fox-1 homolog 2, RRM domain, GST-SBP tag (RBFOX2, Homo sapiens, UniProt O43251-10, residues 100-194)
Notes: natural RNA segment, single round, ends assumed
All sequences stand within: GGGAGUUCUACAGUCCGACGAUC … UGGAAUUCUCGGGUGCCAA
Construct (chain): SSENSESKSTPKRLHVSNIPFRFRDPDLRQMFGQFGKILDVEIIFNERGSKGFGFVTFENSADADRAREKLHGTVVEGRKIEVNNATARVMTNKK
| Oligonucleotide | RBNS enrichment (R) |
| --- | --- |
| CCUCUAAACUUUGAUUUAUUGAAGUUUUAUUUGGCAAGAAAAAAGAAAUUGAAUCUUGAUCAAUAUUUAAACCAAAGGGAAAAGGGAAAACCAAAACCAAACCAAAGUUC | 0.408 |
| AAAGCUUCAUAAUAAUACAUUCUUACCUAAAGCUCACUGUCAUGAUGUUAGGUAUUUAAAUUCUUAAAGAUGUUGGGUUGUUUAUUAGUGGUAUUUUUAUGUUGUCUUAU | 0.583 |
| CUUAGUUGAUUCAGUAGUUGUUACCAAGAAACAUAUGUUAUAGGAAAACAACUUGGUAUUUAAGUAUGAAGUGGAUGAAAUGUUUAUUUAUUUAAGGUGAAAGCAUUUGA | 0.398 |
| AUGUCCCCCAUAUGCAUGUAAUGAAACAUUUGUGAAAAUCACUUUAAUAAUAAACAGGAAAUGAACCAAAUAUUGCUCUUUUCUCUUAUUCAGCAGAAGUCAUGAGUUGG | 7.76 |
| CUGCCGGGGAGGAGGGGCUCCUGGGCCUGCUUCCUCCAGGCGCUCUAGAUGCACAAUCCAAUACAGUGGCCUCGUGUGGCUGUAUAACUCGGUUCACUUCAGACUACGUG | 0.348 |
| GUGGGAACACAGAGGGAGUAGCCUGCGAAUGUGCCUCCAGUCAGUGGGAUACUUUCUGCACCACUCUGAGUGAUUGUUACCUUGUAACCACUAGUAAGCUUUGUUCAUGC | 0.665 |
| CUGCUGUGAACAGUUAUGAACCAGGGGAGGCUGCUGCAUGUGCCUAUUAUGUUGGCAGUGGGUGGCAGGCAGAGGCAGGCACGCGAUUAGUAGAGCCCUGCUUGGGCCUC | 3.07 |
| GGUUCCCUGACAGCAGACAAGGCAGCUCUGGGAGGUAGCUAGUAUCCAAUAACCCAGGGGUUUCCUCAUGUGAUGCAAAUACUACGUGUCCAACCAAUCAGUGCUGUCAA | 0.417 |
| CAGCCUCAUCCUUUGCCUUGCUGGCUUUCUGGGCACGUCUUAAAGCUGAUGUGAAUCCAUCCAGGGCCUAGGUAGAUUGGUAAGUCAGGAAACAGCCCAUGGGGUUCAGC | 0.534 |
| CACACAUCUUGAAAAAUAAAACGAUAAUAGAACUAGUGACUAAUUUUCCCUUACAGUUCCUGCUUGGUCCCACCCACUGAAGUAGCUCAUCGUAGUGCGGGCCGUAUUAG | 0.308 |
| GACACUGGCUCAUAUUCCUGCAGCCUGGAGGCCGGGUGCUCAGGGCUGACACGUCCACCCCAGUGCACCCACUCUGCUUUGACUGAGCAGACUGGUGAGCAGACUGGUGG | 0.369 |
| AAGAAUUUAAACGGGAGUCUGAAGACCUGCUGUUACUAGAAAGUUAAGAAAGGCGCUUUACAGAUAUAAAGAAAGGGAACAUGACAGCUGCCUGAUGGCUUAGCCUGGAG | 0.859 |

Sample 3 — technique: universal PBM; molecule type: double-stranded DNA, one strand shown; medium: in vitro; concentration: not given; reading: higher = stronger binding
Target: Sal-like protein 4, full length isoform B (SALL4, Homo sapiens, UniProt Q9UJQ4-2, residues 1-616)
Notes: 8-mer, flanks averaged, mean of replicates
Residues (chain): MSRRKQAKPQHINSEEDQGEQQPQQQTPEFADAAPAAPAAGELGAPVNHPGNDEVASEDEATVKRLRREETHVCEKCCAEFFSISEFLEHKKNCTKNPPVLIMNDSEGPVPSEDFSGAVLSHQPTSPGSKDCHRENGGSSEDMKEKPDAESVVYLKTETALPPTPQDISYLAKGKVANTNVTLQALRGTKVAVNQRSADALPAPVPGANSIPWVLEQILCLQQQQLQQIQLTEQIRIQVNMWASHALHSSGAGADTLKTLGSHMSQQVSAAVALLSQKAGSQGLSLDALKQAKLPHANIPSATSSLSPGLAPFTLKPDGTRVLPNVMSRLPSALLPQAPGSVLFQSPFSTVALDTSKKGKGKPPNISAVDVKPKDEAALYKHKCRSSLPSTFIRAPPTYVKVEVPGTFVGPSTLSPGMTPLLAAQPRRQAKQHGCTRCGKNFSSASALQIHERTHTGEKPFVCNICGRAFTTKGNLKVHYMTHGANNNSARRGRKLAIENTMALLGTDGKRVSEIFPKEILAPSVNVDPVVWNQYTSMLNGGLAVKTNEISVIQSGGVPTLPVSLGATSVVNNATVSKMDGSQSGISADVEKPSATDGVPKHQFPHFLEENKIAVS
| Oligonucleotide | E-score |
| --- | --- |
| ACCTTGTC | -0.103 |
| AGAGAACA | 0.0832 |
| CTTTGATC | -0.109 |
| ATGTGGGC | -0.0929 |
| AGGCCTTC | -0.0956 |
| ACGCGTCT | -0.109 |
| ATAGAAAT | 0.327 |
| CAAGGACG | -0.204 |
| CGAGTGAG | -0.177 |
| CGACTGTA | -0.149 |
| CTCTCAAC | -0.11 |
| CGCGTAAG | -0.0605 |
| ATTGCCCG | -0.147 |
| AGTACCAG | -0.127 |
| AAATGAGT | 0.255 |
| CGAGCCCA | -0.224 |

Sample 4 — technique: RNA Bind-n-Seq; molecule type: RNA; medium: in vitro; concentration: 1 µM; notes: whole 134-nt RNA, ends assumed; together with: 150 mM KCl; relative to: input library; reading: higher = stronger binding
Target: Ras GTPase-activating protein-binding protein 1, C-terminal RGG region (G3BP1, Homo sapiens, UniProt Q13283)
UniProt Q13283, sequence (whole entry, looked up): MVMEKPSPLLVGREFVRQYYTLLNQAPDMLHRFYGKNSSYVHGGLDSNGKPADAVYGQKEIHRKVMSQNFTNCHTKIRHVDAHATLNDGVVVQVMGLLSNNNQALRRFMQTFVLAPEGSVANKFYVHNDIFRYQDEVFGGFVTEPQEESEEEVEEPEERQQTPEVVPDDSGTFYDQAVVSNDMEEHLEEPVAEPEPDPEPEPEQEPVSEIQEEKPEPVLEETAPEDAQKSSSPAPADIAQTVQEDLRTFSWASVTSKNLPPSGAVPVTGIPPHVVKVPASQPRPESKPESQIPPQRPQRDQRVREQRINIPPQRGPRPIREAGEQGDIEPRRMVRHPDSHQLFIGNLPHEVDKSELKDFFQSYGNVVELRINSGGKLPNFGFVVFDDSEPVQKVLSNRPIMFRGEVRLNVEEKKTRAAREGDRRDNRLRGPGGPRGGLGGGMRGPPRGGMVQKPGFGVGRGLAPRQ
All sequences stand within: GGGAGUUCUACAGUCCGACGAUC … UGGAAUUCUCGGGUGUCAAGG
| Oligonucleotide | log2 enrichment |
| --- | --- |
| CAAGUCCUGUGCUACACAUCGUAUGUACCGAAUCGGAAAAAGGAAAAAAAGGAGGAAAGUAUUAUGUUACGCCGUUCGGAUCUGCACUUC | -1.83 |
| GGAGGAAGUAAAAACAAAUGGAAAUGCUUCGGAUAGUGGCAGGGGUGGGGGUUGCUAAGGAAAGGGUGGGAUGGGAGUGGGUAAAGAGUU | 2 |
| UCAAGUCCUGUGCUACACAUCGUAUGUACCGAAUCGGUUGGGGUUGGGUUGGGGAAAGUAUUAUGUUACGCCGUUCGGAUCUGCACUUCC | 1.57 |
| CGCAGACAACACGCACCCACACAGACACAGAGGGAAGGGGUUGGGAUGGGGACAGGGUGCACAGCAGGGCGGGGUAGGACCCCAGCCCCU | -0.0948 |
| GUCCUGUGCUACACAUCGUAUGUACCGAAUCGGGGUUUUUGGGGUUUUUGGGGUGGGGAAAGUAUUAUGUUACGCCGUUCGGAUCUGCAC | 1.13 |
| UGGGAGGUGGAUUUUGUUUAUUUUUUUAGCUCAUUUCCAGGGGUGGGAAUUUUUUAUUAAUAUGUGUCAUGAAUAAAGUUGUUUUUGAAA | 3.69 |
| CCUGUGCUACACAUCGUAUGUACCGAAUCGGGGUUUUUUUGGUUUUUUUGGGUUUUUUUGGAAAGUAUUAUGUUACGCCGUUCGGAUCUG | -1.34 |
| UAACUUUAGAGGAGGAUCUGAUGGAUAUGGCAGUGGACGUGGAUUUGGGGAUGGUUAUAAUGGGUAUGGAGGAGGACCUGGAGGUGGCAA | -0.853 |
| UUCUUGCCAGAGACGAAGAAGCGCAAGAAACGCAAGUCAGAGGAUGGCACGCCAGCGGAGGAUGGCACACCUGCAGCCACCGGCGGGAGC | -1.96 |
| UUUAAUGUCUGCGGCACAAUGCCUGUCUGUGGGACCAUCCUGGGAAAACCUGCUUCUGGCUGUGAGGCAGAAACCCAAACUGAAGAGCUC | 0.826 |
| CCUGUGCUACACAUCGUAUGUACCGAAUCGGGGUUUGGGGAAAAAGGGGAAAAAAAGGGGAAAGUAUUAUGUUACGCCGUUCGGAUCUGC | 0.656 |
| GCAGGAAGUAAAAACAAAUGGAAAUGCUUCGGAUAGUGGCAGGGGUGGGGGGUGCUAAGGAAAGGGUGGGAUGGGAGUGGGUAAAGAGUU | 0.596 |
| UAACUUUAGAGGAGGAUCUGAUGGAUAUGGCAGUGGACGUGUAUUUGGGGAUGGCUAUAAUGGGUAUGGAGGAGGACCUGGAGGUGGCAA | -1.58 |
| UCAAGUCCUGUGCUACACAUCGUAUGUACCGAAUCGGGUUUGGGUGGGUUUGGGAAAGUAUUAUGUUACGCCGUUCGGAUCUGCACUUCC | 2.08 |

Sample 5 — technique: protein binding microarray; molecule type: double-stranded DNA, one strand shown; medium: in vitro; concentration: not given; relative to: not given; reading: higher = stronger binding
Target: Histone acetyltransferase KAT6A, winged helix 2, GST fusion (KAT6A, Homo sapiens, UniProt Q92794, residues 85-181)
Notes: 8-mer, flanks averaged, mean of 2 arrays, mostly near background
Residues (chain): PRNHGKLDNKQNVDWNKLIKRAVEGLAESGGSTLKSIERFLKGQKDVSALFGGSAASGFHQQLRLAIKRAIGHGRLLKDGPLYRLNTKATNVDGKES
| Oligonucleotide | E-score |
| --- | --- |
| AGCCAGCG | 0.0238 |
| ACAATGCC | -0.144 |
| AGCGAGCG | 0.201 |
| ACTGTCAG | -0.103 |
| CCGCTAGA | -0.0433 |
| ACATATGA | -0.0395 |
| CGTCCCTA | -0.00035 |
| AGGCGATC | -0.0632 |
| ACGCGGGG | 0.181 |
| TAGACGGA | -0.0272 |
| CCGATCAC | 0.107 |
| ATCTGGCA | 0.154 |
| ATCTCCAT | -0.0505 |
| AACGACTG | -0.109 |
| AAGTAGCC | -0.103 |
| GAAACCTA | -0.048 |
| GCACATAC | -0.125 |
